Measurements of several laboratories.
Protocols differ between the studies behind these lines. ± marks the error that the study gave.

| SMILES | assay | test system | setting | scale | measurement | value |
| --- | --- | --- | --- | --- | --- | --- |
| Cc1ccc(=O)n(-c2ccc(O)cc2)c1 | item: Nfkb1, Il1b, Tnfa | BALB/c mouse, CCl4 liver injury, liver | oral, 1 mmol/kg daily, 4 weeks |  | mRNA level | decreased |
| NCCCC[C@H](N)C(=O)N1CCC[C@H]1C(=O)NCC(=O)NCC(=O)O | diketopiperazine formation, transition state theory | 1-propanol | 70, 80, 90 °C, 0.5% acetic acid |  | ΔS‡ at 298.15 K | -4 ± 1 J/(mol·K) |
| COC(=O)[C@H](CC(C)C)NC(=O)[C@@H]1C[C@@H]2CN1C(=O)[C@H]([C@@H](C)OP(=O)(O)O)NC(=O)[C@H](CO)NC(=O)[C@@H](NC(=O)c1cccc(C(F)(F)F)c1)CCC(=O)NCCO2 |  | zebrafish embryo | microinjection, 24.5 ng, 24 hpf | relative to: control | yolk extension area decrease | 31% |
| FC(F)(F)c1ccccc1/N=c1\oc2ccccc2cc1-c1ccccc1 |  | rat, formalin paw oedema | intraperitoneal, 10 mg/kg, 2 h |  | oedema reduction | 30.3 ± 1.6% |
| CCOC(=O)Cc1csc(NC(=O)CCN2CCC(O)CC2)n1 | paw oedema | mouse | intraperitoneal, 200 µmol/kg |  | inhibition in vivo | 59.6% |
| NC(=S)N/N=C1\c2ccccc2-c2nc3cc(F)ccc3nc21 |  | mice with STZ-induced diabetes | oral, 25 mg/kg, 216 h, day 9 |  | blood glucose | 213 ± 10.3 mg/dL |
| NC(=O)C[C@H](N)C(=O)N1CCC[C@H]1C(=O)NCC(=O)NCC(=O)O | diketopiperazine formation, transition state theory | 1-propanol | concentration not given, 70, 80, 90 °C, 0.5% acetic acid |  | enthalpy of activation | 17.9 ± 0.478 kcal/mol |
| COc1cc(CN2CCN(c3ccc(C)cc3)CC2)c2cc3[n+](cc2c1O)CCc1cc2c(cc1-3)OCO2 | ferric reducing power, FRAP |  | 10 µg/mL, 30 min | higher is greater reducing power | FRAP absorbance | 2.22 ± 0.26 a.u. |
| C[C@H](N)C(=O)N1CCC[C@H]1C(=O)NCC(=O)NCC(=O)O | diketopiperazine formation, transition state theory | 1-propanol | concentration not given, 70, 80, 90 °C, 0.5% acetic acid |  | enthalpy of activation | 19.1 ± 0.956 kcal/mol |
| Oc1ccc2nc1CNCCNCCNC2 | pH-potentiometric titration |  | 298 K, I 0.15 M NaCl, added: Zn2+ |  | log beta ML | 16.8 |
| C=C(c1ccc(C(=O)O)c(F)c1)c1cc2c(cc1C)C(C)(C)C=CC2(C)C | RNA sequencing, item: Sfrp5 | rat, brain | dose not given, 24 h | relative to: vehicle | log2 fold change | 0.6 |
| CC(=O)[O-].O.O.O.O.[Ni+2].[O-]c1ccc(Br)cc1C=NCCN1CCOCC1 | DPPH radical scavenging |  | 240 µM |  | inhibition | 55.6% |
| C=CCC1C(=O)C=C(OC)C2(OC)C(C)C(c3ccc4c(c3)OCO4)OC12 (single isomer, unassigned; (-)) | item: IL-6, IL-1β, iNOS, COX-2 | mouse, bile duct ligation, liver | dose not given |  | mRNA level | decreased |
| Cn1c(=O)c(=O)n(C)c2cc(S(=O)(=O)NNC(=S)Nc3ccccc3)ccc21 | IPGTT | HFD/STZ diabetic male albino mice | 10 mg/kg, 2 h |  | blood glucose | 116 ± 2.85 mg/dL |
| CC12CC(O)C3CC1(OC1OC(CO)C(O)C(O)C1O)C3(COC(=O)c1ccccc1)C(=O)O2 (stereo not shown) |  | rats, chronic stress depression model | oral, 14 mg/kg, 14 days | relative to: depression group | sucrose preference | increased |
| CCc1nnc(NS(=O)(=O)c2ccc(NC(=S)NC(=O)/C=C/c3ccc(F)cc3)cc2)s1 | immunostaining | athymic nude mouse, BE(2)-C xenograft, tumour | ip, 20 mg/kg daily, 3 weeks |  | IL-6 level | decreased |
| N[C@@H](CCC(=O)O)C(=O)N1CCC[C@H]1C(=O)NCC(=O)NCC(=O)O | diketopiperazine formation, transition state theory | 1-propanol | 70, 80, 90 °C, 0.5% acetic acid |  | ΔS‡ at 298.15 K | -83 ± 21 J/(mol·K) |
| COc1ccc(C2CC(c3ccc(C)cc3)=Nc3ccccc3S2)cc1OC (stereo not shown) |  | rat, normal, overnight fasted | oral, 20 mg/kg, 30 min, oral glucose tolerance test, added: glucose 3 g/kg oral |  | blood glucose | 115 ± 4.61 mg/dL |
| C[C@H](NC(=O)COC(=O)[C@H](C)NC(=O)CO)C(=O)O |  | water | pH 3, 65 °C |  | depolymerization rate constant | 0.025 h⁻¹ |
| C=C(c1ncc(C(=O)O)cn1)c1cc2c(cc1C)C(C)(C)CCC2(C)C | RNA sequencing, item: Lrrc4c mRNA | rat, brain | dose not given, 24 h, single dose | relative to: vehicle | log2 fold change | 0.71 |
| CC/C=C\C/C=C\C/C=C\C/C=C\C/C=C\CCCCOC(CC)C(=O)O (stereo not shown) |  | ob/ob mice | dose not given, 4 weeks | relative to: control | HbA1c change | -47% |
| CC(=O)Nc1ccc(OC(=O)CCC(=O)[O][Pt-2]23([O]C(=O)CCC(=O)Oc4ccc(NC(C)=O)cc4)([NH2+][C@@H]4CCCC[C@H]4[NH2+]2)[O]C(=O)C(=O)[O]3)cc1 |  | BALB/c mouse, 4T1 tumour, tumour tissue | dose not given | relative to: PBS | IL-12 level | 2.5 fold |
| O=C1CCN(Cc2ccccc2)CC1C(C[N+](=O)[O-])c1ccccc1 (stereo not shown) | tail immersion test | BALB/c mice | ip, 50 mg/kg, 0.75 h |  | tail flick response | 46.8% |
| CC[C@H]1[C@@H](O)[C@@H]2[C@H](CC[C@]3(C)[C@@H]([C@H](C)CCOS(=O)(=O)[O-])CC[C@@H]23)[C@@]2(C)CC[C@@H](O)C[C@@H]12.[Na+] |  | ob/ob NASH mouse model | oral, 3 mg/kg once daily, 8 weeks |  | liver weight | 4.9 ± 0.1 g |
| COc1c2c(cc3oc(C)cc(=O)c13)O[C@H](C(C)(C)O[C@@H]1O[C@H](CO)[C@@H](O)[C@H](O)[C@H]1O)C2 | analgesia | mouse | oral, 1 mg/kg, 1.5 h |  | hot plate latency | 9.82 ± 1.08 s |
